Experimental data gathered from unrelated publications.
Numbered parts are unrelated; each lists some results of a single study.

Set 1 — method: aptamer microarray, sandwich; form: DNA with 2'F-ANA; sample: in vitro; tested at: 200 nM; added: Cy3 exosite-II aptamer, 400 nM; direction: higher = stronger binding; measurement: mean fluorescence intensity; strand: GGTTGGTGTGGTTGG
Target: Prothrombin, mature alpha-thrombin (F2, Homo sapiens, UniProt P00734)
Notes: whole 15-mer aptamer, many near background
2'F-ANA at 3 9 14 15: 612 a.u.
2'F-ANA at 5 6 7 10 12 13: 46.2 a.u.
2'F-ANA at 2 3 4 6 7 8 10 12 14: 174 a.u.
2'F-ANA at 4 6 8 10 11 12 15: 86.3 a.u.
2'F-ANA at 1 3 5 7 8 9 13: 56.4 a.u.
2'F-ANA at 3 5 10 11 12 14: 53.5 a.u.
2'F-ANA at 3 5 6 7 10 11: 55.5 a.u.
2'F-ANA at 2 5 6 7 8 9 10 11 13 14: 56.7 a.u.

Set 2 — method: protein binding microarray; form: double-stranded DNA, one strand shown; sample: in vitro; tested at: not given; baseline: not given; direction: higher = stronger binding; measurement: E-score
Target: Histone acetyltransferase KAT6A, both winged helices, GST fusion (KAT6A, Homo sapiens, UniProt Q92794, residues 1-181)
Notes: 8-mer, flanks averaged, mean of 2 arrays, mostly near background
Residues (chain): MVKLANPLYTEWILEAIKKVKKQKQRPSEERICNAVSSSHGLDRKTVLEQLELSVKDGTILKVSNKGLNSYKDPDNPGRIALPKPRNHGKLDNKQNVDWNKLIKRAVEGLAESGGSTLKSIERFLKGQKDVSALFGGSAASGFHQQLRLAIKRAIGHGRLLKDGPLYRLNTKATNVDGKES
AGCGAAGC: -0.0202
TCGTTCCA: -0.137
CAACCCGA: 0.0694
ATCACAGG: -0.0676
CCACGCAA: -0.0125
AGGCCCAG: -0.252
CCGCCTTA: 0.178
CTAGACAG: 0.0157
AGCCACGA: -0.143

Set 3 — method: RNAcompete; form: RNA; sample: in vitro; tested at: 20 nM; notes: 7-mer, probes averaged, single round; baseline: mean of 7-mers; direction: higher = stronger binding; measurement: 7-mer Z-score
Target: PABPC1L2, full length, GST fusion (mouse, UniProt A0ABA7IW68)
Construct (chain): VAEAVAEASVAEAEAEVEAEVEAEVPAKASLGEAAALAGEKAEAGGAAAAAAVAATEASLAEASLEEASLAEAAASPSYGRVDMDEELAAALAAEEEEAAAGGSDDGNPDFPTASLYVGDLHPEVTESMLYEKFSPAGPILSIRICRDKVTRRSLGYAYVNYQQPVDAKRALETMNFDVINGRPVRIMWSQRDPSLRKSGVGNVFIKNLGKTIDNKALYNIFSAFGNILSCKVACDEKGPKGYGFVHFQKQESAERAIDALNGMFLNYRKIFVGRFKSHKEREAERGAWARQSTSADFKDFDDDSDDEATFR
GGCAGGG: 0.184
UGUAAAA: 2.62
GGGAACU: 0.0551
UCUCGUC: -0.508
CAACGUA: 0.0334
GUGAGUG: -0.19
CCUAUAG: -0.195
GACAGAC: -0.00289
ACGUCAA: -0.161

Further values, each from its own experiment
PhoQ, residues 284 288 289 292 302 303 WVSSAF
fold induction (PhoP, residues 12 14 15 18 19 VQGLL (Escherichia coli, UniProt P23836); Sort-seq, measured: YFP reporter; E. coli; PhoQ-PhoP variant library, added: 10 µM Mg2+; baseline: high Mg2+ state, higher = stronger signaling): 13

Some of these lines once more (further values, each from its own experiment):
PhoQ, residues 284 288 289 292 302 303 WVSSAF
fold induction (PhoP, residues 12 14 15 18 19 VQGLL (Escherichia coli, UniProt P23836); Sort-seq, measured: YFP reporter; E. coli; PhoQ-PhoP variant library, added: 10 µM Mg2+; baseline: high Mg2+ state, higher = stronger signaling): 13
